Assay results from different studies.
Parts stem from different laboratories: compare values within a part only.

Set 1
Target: Centromere-binding protein 1, full length, His-tagged (CBF1, Saccharomyces cerevisiae, UniProt P17106, residues 1-351)
UniProt P17106, sequence (whole entry, looked up): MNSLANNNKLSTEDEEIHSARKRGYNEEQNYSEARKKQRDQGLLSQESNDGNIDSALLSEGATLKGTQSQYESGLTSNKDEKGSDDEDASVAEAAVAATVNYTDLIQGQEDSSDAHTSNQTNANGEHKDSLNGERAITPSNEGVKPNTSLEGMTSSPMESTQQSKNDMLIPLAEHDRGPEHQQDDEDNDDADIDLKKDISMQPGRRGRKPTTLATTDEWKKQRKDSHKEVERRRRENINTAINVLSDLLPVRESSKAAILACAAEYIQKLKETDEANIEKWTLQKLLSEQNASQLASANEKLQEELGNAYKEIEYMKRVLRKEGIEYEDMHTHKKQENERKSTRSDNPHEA
Technique: competition protein-binding microarray
Form: double-stranded DNA, one strand shown
Sample: in vitro
Tested at: 2 µM
Setting: whole 60-bp probe, lowest competitor level
Together with: Pho4 competitor, 0.05 µM
Reading: higher = stronger binding
Shared flanks, not repeated: … GTCTTGATTCGCTTGACGCTGCTG
Oligonucleotide | fluorescence intensity [a.u.]
TCTAACATATCCTTTCTCATGACAGTATTCATGGAT | 82.7
GTATTCTAGCAGCCGCTCGTGCAAAGTGTTCAATGC | 99.1
GTCTTGTCTCATTTTCACGTGAGCTTCCCCACTTCA | 839
GTCATCGACCTTGAGCATGTGGTAGACTACATAATG | 129
CGGGGTTAAGTTTGTCACCCAACTTGCTTGCAGCAG | 69.9
CGCAGTCGCAACCAACATGTGACGGATGCGAGCGAA | 460
CTTTCCCGATCTTGTCGCGTGGGTGTAGCACATTTG | 94.5
TTTGCCTGGCAATATAACGTGCGATAGGTATTCATC | 100
CTTTCCCGATCTTGTCACGATACTTTAGCACATTTG | 259
AAATTACTAAGTTGGCGAGTGGGTGACGCCGTATGA | 69.8
AAAGCGGTAATTTGTAACGTGGGTGCAGATATCTAT | 99.7
AAATTACTAAGTTGTGCCGTGGGTGACGCCGTATGA | 80.6
AAATTACTAAGTTGTCACGGTACTTACCCCGTATGA | 248
TCTCAATCTCCGTCCAATGTGACGCCCACTACGATT | 75.6
AGATACATTACCACCTTCGTGATTGGAATGAATGGT | 94.2
CGTCCTAGTGATTGTCACCTGACTTCCATGAGGAAG | 1680
CAGCGAGTTCTTTAGCACGCTTCTGTCTTTCAGCAT | 77
CGGGGTTAAGTTTGCATAGTGGGTGGCTTGCAGCAG | 70.3
AAAGCGGTAATTTGGGATGTGGGTGCAGATATCTAT | 75.7
AACCTCTCAACAAAGCACGCTATGTACACACATCTA | 75.1
AAATTACTAAGTTTTCACGTGTCCTACCCCGTATGA | 1180
TAATAATATTTATTACACGTGATGGAATATATCCTG | 5010
TGCGCAACAACTTGTCACGTCACTTTATGTCTAGAA | 143
CTAACGAAGGTTTGGGCCGTGGGTGACAAGCCAAGT | 60.5
CAAGGGATTTTGACGCCCGTGACGGAGGATGATTTG | 183

Set 2
Target: RNA binding protein fox-1 homolog 2, RRM domain, GST-SBP tag (RBFOX2, Homo sapiens, UniProt O43251-10, residues 100-194)
Technique: RNA Bind-n-Seq
Form: RNA
Sample: in vitro
Tested at: 365 nM
Setting: natural RNA segment, single round, ends assumed
Baseline: no-protein control
Reading: higher = stronger binding
Shared flanks, not repeated: GGGAGUUCUACAGUCCGACGAUC … UGGAAUUCUCGGGUGCCAA
Residues (chain): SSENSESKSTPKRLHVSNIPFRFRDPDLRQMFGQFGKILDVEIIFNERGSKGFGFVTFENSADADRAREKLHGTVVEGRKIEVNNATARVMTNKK
Oligonucleotide | RBNS enrichment (R)
UUAUUGGUAAACAAGAUCUUGCCCUCCAAUGAAAUGACUUACAUGUUUUAAAAAACCGAGUUGGUUUUAUUGAAUUUAAAAAGAUAGGUAACUAAGUAGCAUUUAAAAUC | 0.608
GCUUAUUUAUUAAUCUUGAUUUAAUACGUUCUCUUCCCAAGCUGGAAGAUCCUCUUUCCAGGCCUCUCUAACCAAGUCUCAAAUAUCCAGGCAGAGUUUUAGUAUGACAU | 0.369
AUCAUGUGUUUUUUGUCUUUGGCUCUGUUUAUAUGCUGGAUUACAUUCAUUGAUUUGCGUAUAUUGAACCAGCCUUGCAUCCCAGGGAUGAAGCCCACUUGAUCAUGGUG | 0.394
AUCCACCACAGGGUUAGGGGACAGGAAGCCUGUUCUAUUCUCAAUAAAUCUUACAAAAUUCCAAAAAGACUUUCCUGUGUCCCUCUGUCCCCCUGGGGGGAAGGGACAAU | 0.6
CGUUGGGUCCACGCCUCCACCGCCCCAUCUUGCCCCAAACGGAAAGCGCUGUAUCUGCAGUGGCAGCCCUUCCCCACUUCGGCUCUGGGAGGGUCCAGCCAGUGUCACCU | 0.276
AUCACCCUGUCUCUUUACCACUAACCUGUGAGGUGUCGUCACCAGAGGACACCUGAGGCCUUGACACCUUCCAGGACUCUGGCAAUGGGAGUUUUGAUACUGGAUACCCA | 0.316
UCCUAAAGUAUUUGUUUUUAUUUGUACCAUCCACUUGUGCCUUACUGUAUCCUGUGUCAUGUCCAAUCAGUUGUAAACAAUGGCAUCUUUGAACAGUGUGAUGAGAAUAG | 1.61
UUACCUUACAACCUUUCCAUUAUUCAGACAUUUGUAAAGUCAUUUCAUCCCAAAUACUUAACCUCAUUCUUUAGUAAUGGUGUAGGUGGAUUGGCUCAGGUUUAAUACAU | 0.258
AUUUGUGAAGAGGUUCGCAGGGAUAAGGGGUGCACUUUAUAGCUAUGGAAACAUGAGAUUCUCCUCUAUUGGAAGCUAAUUAGCCCACAAAGGUGGUAAACCUGUAGAUU | 0.483

Set 3
Target: Histone acetyltransferase KAT6A, winged helix 1, GST fusion (KAT6A, Homo sapiens, UniProt Q92794, residues 1-85)
Technique: protein binding microarray
Form: double-stranded DNA, one strand shown
Sample: in vitro
Tested at: not given
Setting: 8-mer, flanks averaged, mean of 2 arrays, mostly near background
Baseline: not given
Reading: higher = stronger binding
Residues (chain): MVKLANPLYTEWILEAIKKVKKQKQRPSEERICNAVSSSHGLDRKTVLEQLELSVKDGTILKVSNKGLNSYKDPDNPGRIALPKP
Oligonucleotide | E-score
ACGCATGC | 0.203
GCAGTTCC | 0.0456
CAGTGCGG | 0.357
GAAATTTC | -0.0961
GCCTCTAC | -0.0846
CAGACGTA | -0.11
GAGGCAAC | -0.0752
ATAAGTAT | -0.0703
CAGCGAGG | -0.112
ATAGGTAA | -0.159
ATAATATG | -0.0869
ACACCCTG | -0.318
ACCCATAC | -0.189
CCGGCCTC | 0.18
GGCACCGA | 0.00024
ATTCCACC | -0.187
CATGTGAC | -0.143
ACATCTTG | -0.222
ACGCTACG | 0.132
CTCCATCA | -0.148
CCTGTGCG | 0.055
AACCGTGG | -0.00189

Set 4
Target: RING finger protein unkempt homolog, zinc fingers 1-6, GST-SBP tag (UNK, Homo sapiens, UniProt Q9C0B0, residues 30-357)
Technique: RNA Bind-n-Seq
Form: RNA
Sample: in vitro
Tested at: not given
Setting: RNA with constant flanks, ends assumed
Baseline: input RNA pool
Reading: higher = stronger binding
Shared flanks, not repeated: GGGAGUUCUACAGUCCGACGAUC … CAACAGAGGAUUGAGCAUCA
Construct (chain): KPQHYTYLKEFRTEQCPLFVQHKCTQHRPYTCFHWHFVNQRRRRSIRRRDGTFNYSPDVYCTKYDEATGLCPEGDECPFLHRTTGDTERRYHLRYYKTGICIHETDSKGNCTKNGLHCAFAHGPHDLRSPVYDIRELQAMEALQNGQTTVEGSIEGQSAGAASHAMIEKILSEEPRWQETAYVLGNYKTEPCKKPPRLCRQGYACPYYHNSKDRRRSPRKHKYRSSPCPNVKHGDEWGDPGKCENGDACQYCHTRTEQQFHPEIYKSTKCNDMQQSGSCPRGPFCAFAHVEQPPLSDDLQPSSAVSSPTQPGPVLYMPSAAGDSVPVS
Oligonucleotide | bound/input enrichment [ratio]
UUUGUACCAGUUAUCAAACUCUGUUUUGAUGGAAUAGAGAUUGAUAUUUUGUUUGCAAGAUCCGCACUGCAGACUAUUCCAGAAGAUUUGGACCUACGAGAUGACAGUCUGCUUAAAAAC | 0.114
ACUUCAUCUUCCUCCUCUGAAGAUGAACAGCACUUUGAGAGGCGGAGGAAAAGGAGUCGUAACCGGGCUAUCAAUAGGUGCCUCCCACUAAAUUUUCGGAAAGAUGAAUUAAAAGGCAUU | 0.0683
GGUCGUGGUGUUUUAAAAGCAUAAGUUACCUGUUUGCACUGUUUUAAGAUAGGAAAAAAAAACCGUGGGCAAGGUGAACAUCAGACGUAAAUUUGUGUGUUUUUAUUUUGUCAUGCUCUU | 0.423
AGUUUUGUCUGAGAUGCACCUUGCAUGGUACGUGUGUGAGAGGUUGUGCAAGUUCUGAGACUCCGACAAUUCAGAAGUCACCCUUCUGAGGGAACAGUUCCCAAAAUGGAGCAAUAAAGG | 0.166
CUUCCCUUUGGAGACAAAGACACAAAAUCCAAAGUGACCCUGCUGGAAGGUGACCAUGUCCGGUUUAAUAUUUCAACAGACCGACGUGACAAAUUGGAACGAGCAACCAACAUAGAGGUU | 0.255
CUGUGUAAGUAGUGGAUACAACAUAGGAACAUCCAAGGUACUGACUGCAGCUUUAGAUACGUGAUCCGUGUGAGAGUCACAUUCUCUGUGUGAAGAUACAUGUCUUUGAGUAAAUUUCAU | 0.141
AUCCCACUGGGGAACUAGUCCUGUCCAUCUGGUGUUGGCGUGCUGGCUGCACACUUUGUUUCCGGGCCUGAACACCUGUGUGUAUGUGUGUGUGUAUGUGUGUGUGUGCGUGCGUGUGCU | 0.346
GCCAUGACACUUGAUGAGACUAGUGUGUCUGCCCUAGUUGGAUUUAUCCAAUGUCAGUUGACCGAAGGGCAAUUACAGGAUGCAGAUCAGCAGCUAGAAUUUUUAAAUGAAAUCCAGCAA | 0.372
UUUUUAUGCGACCAUUGUCUCCGUGGUUGGGCUGCAUGUAGUUUUGGCAAUUUUUGUUUUUACCGUAUGGAAGGAAGGUUUGCCACAGUGGCGGGAAAACAAAAAUGAUUAGGGCAGCAG | 0.539
UUCCAGUCAUCUACCGCCCUUUUGUGUUCACCUCUUUUACCCUCCAAUCAACUUCCCAGGUCCGCCCAUCAGUCUGCCAUCUGUCCCUCUGCCCACUGAUCCAUCCAUGUAUGCCCUUGC | 0.5
CCAAAACUGAAACUGUGGAUGGCAGCCAUGAAGGAAGAUCCCACAGUCUCAGCCCUGCUUACCCGUGAGAAAGACUGGCAAGGUUUCCUAGAGCUCUACUUACAGAACAGCCCUGAGGCC | 0.0921

Repeated from above (set 4):
Oligonucleotide | bound/input enrichment [ratio]
CUGUGUAAGUAGUGGAUACAACAUAGGAACAUCCAAGGUACUGACUGCAGCUUUAGAUACGUGAUCCGUGUGAGAGUCACAUUCUCUGUGUGAAGAUACAUGUCUUUGAGUAAAUUUCAU | 0.141
UUUUUAUGCGACCAUUGUCUCCGUGGUUGGGCUGCAUGUAGUUUUGGCAAUUUUUGUUUUUACCGUAUGGAAGGAAGGUUUGCCACAGUGGCGGGAAAACAAAAAUGAUUAGGGCAGCAG | 0.539
AGUUUUGUCUGAGAUGCACCUUGCAUGGUACGUGUGUGAGAGGUUGUGCAAGUUCUGAGACUCCGACAAUUCAGAAGUCACCCUUCUGAGGGAACAGUUCCCAAAAUGGAGCAAUAAAGG | 0.166
CUUCCCUUUGGAGACAAAGACACAAAAUCCAAAGUGACCCUGCUGGAAGGUGACCAUGUCCGGUUUAAUAUUUCAACAGACCGACGUGACAAAUUGGAACGAGCAACCAACAUAGAGGUU | 0.255
